Measured values from different studies.
Every numbered part comes from another study and shows a few of its results, in no order. Substitutions count along the parent as printed.

Series 1
Target: ABI1, truncated, D143A, DHFR fusion (Arabidopsis thaliana)
Method: DHFR PCA, deep sequencing
Matrix: yeast
Notes: methotrexate growth selection, single substitutions
Added: (+)-ABA 4.8 µM
Baseline: wild-type fitted maximum
Reading: higher = stronger binding
Parent: PYL1, truncated, DHFR fusion (Arabidopsis thaliana); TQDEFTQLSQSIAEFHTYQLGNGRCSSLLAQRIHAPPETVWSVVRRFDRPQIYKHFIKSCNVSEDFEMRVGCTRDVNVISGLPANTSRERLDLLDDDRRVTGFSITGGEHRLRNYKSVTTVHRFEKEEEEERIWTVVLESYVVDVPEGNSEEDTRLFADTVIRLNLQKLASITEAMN; partner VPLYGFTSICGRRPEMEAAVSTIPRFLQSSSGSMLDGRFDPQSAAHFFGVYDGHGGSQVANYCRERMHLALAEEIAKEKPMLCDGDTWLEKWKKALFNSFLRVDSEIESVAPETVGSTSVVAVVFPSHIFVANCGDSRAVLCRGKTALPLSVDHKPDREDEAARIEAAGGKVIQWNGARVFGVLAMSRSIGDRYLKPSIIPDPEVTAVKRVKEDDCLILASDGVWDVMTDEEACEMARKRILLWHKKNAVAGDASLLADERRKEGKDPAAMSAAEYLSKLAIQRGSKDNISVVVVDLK
| Substitution | relative binding score [%] |
| --- | --- |
| D153W | -17.5 |
| E89L | -2.16 |
| R90G | -9.54 |
| A35F | -12.2 |
| P36H | 67.2 |
| A84Y | 69.6 |
| A84F | 58.7 |
| D159W | 6.08 |
| V161D | -7.15 |
| R113S | 66 |
| Q31E | 12.8 |
| F5R | 66 |
| E129K | 72.3 |
| L29N | 45.8 |
| Y18W | 65.5 |
| L20V | 81.9 |
| K58G | 24 |
| D3K | 56.4 |
| T17H | 53.4 |
| K58C | 30.8 |
| L164R | 59.8 |
| H16E | -10.4 |
| S117L | -6.72 |
| F124N | 25.6 |

Series 2
Target: Max-binding protein MNT, bHLH-zipper, MAX partner unstated (MNT, Homo sapiens, UniProt Q99583, residues 220-300)
Method: protein-binding microarray
Form: double-stranded DNA, one strand shown
Matrix: in vitro
Concentration: not given
Notes: k-mer, scored over probes, only values ≥0.25
Reading: higher = stronger binding
Construct (chain): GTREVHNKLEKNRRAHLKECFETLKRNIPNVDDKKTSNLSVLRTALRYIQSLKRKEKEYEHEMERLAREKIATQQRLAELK
| Sequence | E-score |
| --- | --- |
| CGCCGCCA | 0.258 |
| GTGCGCCA | 0.263 |
| CATGGTGA | 0.29 |
| CGCCATGC | 0.417 |
| ATGGGGTG | 0.295 |
| ACGGCACG | 0.325 |
| ACGTGACC | 0.452 |
| CCACCCCG | 0.263 |
| ACACATGT | 0.467 |
| ACGTGCGG | 0.418 |
| CAAACACG | 0.358 |
| CACGAGTA | 0.395 |
| CGTGATGC | 0.316 |
| GCGTGCCC | 0.344 |
| CACGACCA | 0.304 |
| CCGCATGA | 0.366 |
| ACCCCACA | 0.287 |
| CATGGGGC | 0.327 |
| CACCTCAC | 0.257 |
| CGAACACG | 0.287 |
| CATGGCTC | 0.307 |
| AGAGCACG | 0.376 |
| CCGCGTGA | 0.426 |

Series 3
Target: OGT, full length, His-tagged (human)
Method: phage display, sequencing
Matrix: in vitro
Concentration: 1 µg OGT
Notes: single substitutions, 15-mer displayed peptide, unchanged parent 16.7
Baseline: input library
Reading: higher = stronger binding
Parent: peptide; NSEYMPQYQIIFAHQ
| Substitution | fold enrichment [fold] |
| --- | --- |
| Q15K | 30.1 |
| E3F | 12.5 |
| Y8D | 0.142 |
| S2D | 19.5 |
| P6E | 0.752 |
| I11T | 8.68 |
| S2Q | 16.5 |
| I11S | 5.41 |
| S2L | 15.9 |
| S2W | 13.1 |
| Q15H | 13.4 |
| P6D | 0.963 |
| I11M | 16.7 |
| E3Q | 18.2 |
| E3N | 12.1 |
| Q7I | 5.85 |
| P6G | 1.14 |
| H14A | 14.6 |

Series 4
Target: RNA binding protein fox-1 homolog 2, RRM domain, GST-SBP tag (RBFOX2, Homo sapiens, UniProt O43251-10, residues 100-194)
Method: RNA Bind-n-Seq
Form: RNA
Matrix: in vitro
Concentration: 365 nM
Notes: natural RNA segment, single round, ends assumed
Baseline: no-protein control
Reading: higher = stronger binding
Constant ends, left off below: GGGAGUUCUACAGUCCGACGAUC … UGGAAUUCUCGGGUGCCAA
Construct (chain): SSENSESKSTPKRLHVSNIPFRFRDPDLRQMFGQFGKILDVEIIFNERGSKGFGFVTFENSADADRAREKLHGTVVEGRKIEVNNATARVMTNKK
| Sequence | RBNS enrichment (R) |
| --- | --- |
| ACAACGAGAACAGAGAUGUUCUGGCAUCAUUUACGUAGUUUACGCUACCAAUCUGAAUUCGAGGCCCAUAUGAGAGGAGCUUAGAAACGACCAAGAAGAGAGGCUUGUUG | 0.444 |
| UUACUGAACAUGUCCGCAUCAACCCUCUGAGAAUAACUUGGUCACUUUAUGAAGGGGCGUUUUUAAGUUGUUUAGCAGUGACAUUUAAUAUGGUCCAAUUGCUUUUCUUU | 0.514 |
| UCAGCCUCUUAGAGAGGAGCCCUUGUAUGGCCAGGUCACACGGCAUCCCAGUGGCCGGGGAGUCACCCCCUCACGCAGAGACCUUGCCUGUGCCUCAGAUGGCUUGCUGC | 0.377 |
| AAAGAAUAUUUAUUUAAAGAGGGAAGUGUAGACUUCUUACUGUAAAAUAUGUGAUUCCAGGCUUAAGAAAUUGAUUAUAUUUUAAAAUAAUUAUUUUUUUAAAAACGUAA | 1.1 |
| AGUCCAGGGGAGAAGCUUCUGCUACUUCAGAGCUUUGCUAAACUAACCUAAUUUGUCCAAAUCACCCCAAAACCACCAUCUCUGACGUAAGCUUCCAUGCGACAGCCUGA | 0.545 |
| UCUGUCCUCUUUAUGGAAUGUAGUCGACGGAUAUUGCUGCACCUCAUCAGGCCAUUACAUUGUCCAUGUUAAAAUUAUAAAAAUGAUCCUAGUUUUUCAUAGGAGUCUAG | 0.565 |
| UUUGGAACAUUUAUGUAAGAUUGUCAUAUGAAAUGUAUUUGGGAACUACAUUAAACUUUUAACUAAACCCUGGCCUCUGCAUGCCCCAGGGGCCUCAGGAAGCCCCUGAC | 12.9 |
| AGAUGAGAUGGAUCAAGGUAAAAAUGACCCAUCAUCUACUUUCUCCAAAGAAAACCUAAUUUUCUCAGUGGGUGAACUCAUCAUUGCUGGAACUGAAACUACAACCAAUG | 0.301 |

Series 5
Observed: peptide binding
Form: peptide
Matrix: yeast competitive growth
Added: B2-Cln2 chimera
Reading: direction not given
| Sequence | enrichment score |
| --- | --- |
| LRRQLSFSED | 2.57 |
| LRRKLFLDGNGSIS | -1.11 |
| RKLDLEGIGR | -0.0717 |
| PPKPLKKLRFDIEGSD | 0.723 |
| GFGFLLFICKLTF | -0.0932 |
| KVKRRLDLDIDGLQKE | 0.175 |
| ARKRLELGNLGNPQ | -0.623 |
| RKLHFEDEVT | 0.153 |
| RRVLCFDS | -0.539 |

A few entries again (series 2):
| Sequence | E-score |
| --- | --- |
| CAAACACG | 0.358 |
| CACGAGTA | 0.395 |
| CGTGATGC | 0.316 |
| GCGTGCCC | 0.344 |
| CACGACCA | 0.304 |
| CCGCATGA | 0.366 |
| ACCCCACA | 0.287 |
